Measurements of several laboratories.
Every numbered part comes from another study and shows a few of its results, in no order. Changes are numbered by the printed parent chain.

Study 1 — method: aptamer microarray, sandwich; form: DNA with 2'F-ANA; medium: in vitro; tested at: 200 nM; added: Cy3 exosite-II aptamer, 400 nM; reading: higher = stronger binding; sequence: GGTTGGTGTGGTTGG
Target: Prothrombin, mature alpha-thrombin (F2, Homo sapiens, UniProt P00734)
Setting: whole 15-mer aptamer, many near background
| Modification | mean fluorescence intensity [a.u.] |
| --- | --- |
| 2'F-ANA at 2 4 8 9 11 13 14 15 | 75.7 |
| 2'F-ANA at 2 6 9 11 13 14 15 | 115 |
| 2'F-ANA at 1 4 7 9 12 13 | 159 |
| 2'F-ANA at 2 5 6 9 12 13 15 | 130 |
| 2'F-ANA at 1 3 7 12 13 14 15 | 129 |
| 2'F-ANA at 2 4 7 8 9 11 14 15 | 90 |
| 2'F-ANA at 5 6 7 8 9 11 12 13 14 15 | 156 |
| 2'F-ANA at 4 5 7 9 11 13 14 | 56.1 |
| 2'F-ANA at 2 4 6 7 12 13 15 | 374 |
| 2'F-ANA at 2 3 4 7 8 9 | 738 |
| 2'F-ANA at 2 4 5 8 9 15 | 69.9 |
| 2'F-ANA at 1 3 4 8 12 13 | 312 |
| 2'F-ANA at 5 7 8 10 13 14 15 | 49.1 |
| 2'F-ANA at 1 2 4 7 8 10 11 13 15 | 51.1 |
| 2'F-ANA at 4 7 9 15 | 320 |
| 2'F-ANA at 3 6 9 11 13 14 | 412 |
| 2'F-ANA at 1 3 4 5 7 8 11 14 | 48.9 |
| 2'F-ANA at 1 2 4 5 7 8 9 10 12 14 | 51.2 |

Study 2 — method: protein-binding microarray; form: double-stranded DNA, one strand shown; medium: in vitro; tested at: 2540 nM top; setting: 60-bp whole probe; added: salmon DNA 0.4 mg/ml; reference: random background probes; reading: higher = stronger binding; constant ends, left off below: GCCTAGCAC … GTCTTGATTCGCTTGACGCTGCTG
Target: Interferon regulatory factor 3, full length, phosphomimetic (IRF3, Homo sapiens, UniProt Q14653, residues 1-427, S386D/S396D/S398D/S402D/T404D/S405D)
Construct (chain): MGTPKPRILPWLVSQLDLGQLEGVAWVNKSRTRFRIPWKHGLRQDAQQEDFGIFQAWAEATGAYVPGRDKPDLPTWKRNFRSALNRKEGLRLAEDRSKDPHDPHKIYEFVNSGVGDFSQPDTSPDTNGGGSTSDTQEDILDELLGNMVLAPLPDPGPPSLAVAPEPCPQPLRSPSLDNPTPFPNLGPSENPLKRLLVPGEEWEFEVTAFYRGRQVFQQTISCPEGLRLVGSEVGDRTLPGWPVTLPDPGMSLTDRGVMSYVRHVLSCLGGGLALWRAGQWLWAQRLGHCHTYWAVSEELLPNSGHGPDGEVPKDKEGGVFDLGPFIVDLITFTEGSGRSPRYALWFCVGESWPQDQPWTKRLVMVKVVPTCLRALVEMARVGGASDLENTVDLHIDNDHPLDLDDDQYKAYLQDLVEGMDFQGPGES
| Sequence | fitted relative affinity [z-score] |
| --- | --- |
| TTAGATCGCAGTTTCGATTAGTGCTAG | 3.24 |
| GACAGTTTCGGACTGGGGACGTGCTAG | 4.27 |
| GACGTTTTCGGGACTGGGGACGTGCTA | 1.94 |
| TTAGAACTGGGGACTGGATTCGTGCTA | -0.818 |
| GACGGTTTCGGTATCGGGTCGTGCTAG | 8.04 |
| TTAGGACTGCTTTTCCTTTGGTGCTAG | 0.368 |
| TTAGAACTGGGGTTTGGATTAGTGCTA | -0.738 |
| GACGATTTCGGGTTTCCAGACGTGCTA | 3.21 |
| GACGGTTTCGGTTCCGAGACGTGCTAG | 9.44 |
| TCAAATCTGTGTTATTAAACTGTGCTA | -0.0345 |
| TTGGGTTTCGGGTTTCGGTTAGTGCTA | 4.89 |
| GACGGTCTCAGTCTCGAGACGTGCTAG | 1.13 |
| TGCTTCCTAATTCTCTTTTCGTGCTAG | 1.52 |
| TTAGGATTCGGTTTCGGTTAGTGCTAG | 8.14 |
| TTAGATTACGGGTTTCGATTAGTGCTA | 1.75 |
| TTAGATATCGGGACTTGATTAGTGCTA | -0.143 |

Study 3 — target: CCNB1, cyclin fold, Cln2 fusion (human); method: yeast growth competition, sequencing; medium: yeast; setting: strong parent motif; reference: not given; reading: higher = stronger binding
Starting sequence: E2F1 docking peptide (human); PPVKRRLDFETDH; partner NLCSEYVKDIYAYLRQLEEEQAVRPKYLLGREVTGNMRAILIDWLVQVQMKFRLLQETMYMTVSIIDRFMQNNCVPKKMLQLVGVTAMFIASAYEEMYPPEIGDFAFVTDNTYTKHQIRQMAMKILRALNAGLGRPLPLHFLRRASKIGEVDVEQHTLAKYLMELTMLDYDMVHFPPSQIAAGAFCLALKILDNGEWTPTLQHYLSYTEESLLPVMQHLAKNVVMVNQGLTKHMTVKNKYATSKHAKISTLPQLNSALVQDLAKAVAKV
| Variant | normalised enrichment score |
| --- | --- |
| PPVKRRLQFETDH [D8Q] | 4.42 |
| PPVVRRLDFETDH [K4V] | 5.77 |
| PPVKVRLDFETDH [R5V] | 2.73 |
| PTVKRRLDFETDH [P2T] | 4.65 |
| PPVKRRLDFSTDH [E10S] | 4.55 |
| PPDKRRLDFETDH [V3D] | 0.024 |
| PPVKRRLNFETDH [D8N] | 5.27 |
| PPVKRRLDFETYH [D12Y] | 4.95 |
| PGVKRRLDFETDH [P2G] | 5.19 |
| PPVKRRLDFETGH [D12G] | 5.12 |
| PPVKSRLDFETDH [R5S] | 0.625 |
| PPVKRRLDFDTDH [E10D] | 5.33 |
| PPVKRRLCFETDH [D8C] | 4.8 |
| PPEKRRLDFETDH [V3E] | 1.14 |
| PPVKRRLDFETPH [D12P] | 5.34 |
| PEVKRRLDFETDH [P2E] | 4.81 |
| PRVKRRLDFETDH [P2R] | 4.4 |
| PPVSRRLDFETDH [K4S] | 4.92 |
| PPVKGRLDFETDH [R5G] | 1.29 |
| PPVKRRLDCETDH [F9C] | 0.281 |
| PPVKRRLDFETQH [D12Q] | 4.78 |
| PPVKRHLDFETDH [R6H] | 3.02 |
| PPVFRRLDFETDH [K4F] | 4.5 |
| PPVKRRLDFENDH [T11N] | 5.45 |

Study 4 — target: NFE2L2, bZIP domain (human); method: DHFR protein complementation; medium: yeast; reference: wild-type JUN-FOS pair; reading: higher = stronger binding
Setting: single substitutions, most at no-binding floor
Starting sequence: JUN, bZIP domain (human); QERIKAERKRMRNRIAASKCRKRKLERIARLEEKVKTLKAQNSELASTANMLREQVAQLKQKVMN; partner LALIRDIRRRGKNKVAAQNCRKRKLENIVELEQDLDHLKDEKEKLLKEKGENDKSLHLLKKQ
| Variant | binding fitness |
| --- | --- |
| S47V | -1.32 natural log |
| A49V | -1.34 natural log |
| K34H | -1.03 natural log |
| I28R | -1.29 natural log |
| T37W | -1.46 natural log |
| L38H | -1.45 natural log |
| V35K | -1.35 natural log |
| L38D | -1.57 natural log |
| L52G | -1.52 natural log |
| Q55Y | -1.49 natural log |
| A40D | -1.41 natural log |
| I28V | -1.52 natural log |
| Q41N | -1.51 natural log |
| A29P | -1.45 natural log |
| A46R | -1.26 natural log |
| L31M | -1.55 natural log |

Study 5 — method: DHFR PCA, deep sequencing; medium: yeast; added: (+)-ABA 4.8 µM; reference: wild-type fitted maximum; reading: higher = stronger binding
Target: ABI1, truncated, D143A, DHFR fusion (Arabidopsis thaliana)
Setting: methotrexate growth selection, single substitutions
Starting sequence: PYL1, truncated, DHFR fusion (Arabidopsis thaliana); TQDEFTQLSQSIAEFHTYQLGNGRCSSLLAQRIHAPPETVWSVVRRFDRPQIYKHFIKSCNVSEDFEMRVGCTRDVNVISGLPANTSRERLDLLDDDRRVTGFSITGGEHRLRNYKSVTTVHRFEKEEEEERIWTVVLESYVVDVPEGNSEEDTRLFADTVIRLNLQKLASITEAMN
| Variant | relative binding score |
| --- | --- |
| G71V | -6.74% |
| D144F | 5.62% |
| R32P | 41.3% |
| R99T | -5.9% |
| V118L | 18.4% |
| Y53F | 38.2% |
| S11L | 48.9% |
| E130Y | 52.4% |
| R123Q | 81.4% |
| S11D | 74.3% |
| S171K | 91.8% |
| T119A | -3.3% |
| L8G | 3.65% |
| E38F | -1.04% |
| V142R | 28.8% |
| M68R | 12% |
| T73W | 55.2% |

Study 6 — method: RNA Bind-n-Seq; form: RNA; medium: in vitro; tested at: not given; reference: input RNA pool; reading: higher = stronger binding
Target: RING finger protein unkempt homolog, zinc fingers 1-6, GST-SBP tag (UNK, Homo sapiens, UniProt Q9C0B0, residues 30-357)
Chain of UniProt Q9C0B0 (30-357, looked up): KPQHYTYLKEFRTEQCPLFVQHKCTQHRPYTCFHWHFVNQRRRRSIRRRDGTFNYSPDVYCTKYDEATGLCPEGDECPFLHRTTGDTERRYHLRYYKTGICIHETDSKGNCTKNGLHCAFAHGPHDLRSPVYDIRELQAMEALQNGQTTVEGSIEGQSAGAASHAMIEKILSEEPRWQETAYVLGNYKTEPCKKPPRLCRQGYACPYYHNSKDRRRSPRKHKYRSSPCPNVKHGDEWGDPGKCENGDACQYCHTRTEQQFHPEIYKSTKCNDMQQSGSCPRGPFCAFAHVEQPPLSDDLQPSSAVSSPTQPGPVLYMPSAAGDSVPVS
Setting: RNA with constant flanks, human and mouse sites, ends assumed
Constant ends, left off below: GGGAGUUCUACAGUCCGACGAUC … CAACAGAGGAUUGAGCAUCA
| Sequence | bound/input enrichment |
| --- | --- |
| CCAGGACACUGCCUUAUGUUUGAUCAUCGGCCAAGGUCCUGGCGAGAACUGCCUCUGCGGCUAGCUGAUUUUGGGGUACUUCAUAGGAACGAGCUGUCUGGAGCACUCACAGGACUCACC | 0.147 ratio |
| AAGUACUAAUAUUCCAGAAAUUUUUGAAAGCAGUAACCUUAAUUUCCUAUGUAUUUCAUUCCACUUUUGCAUAUAGGUCAAAUAGCAAUGUGUAUGCACAUUCUCUUUAGUUAAGGCACC | 6.33 ratio |
| UAAAUUAGGGCUGCCGUUUUCUGUUUCUCCCUGGGCUGCGGAAAGCCAGAAGAUUUUAUCUAGCUUAUACAAGGCUGCUGGUGUUCCCUCUUUUUUUCCACGAGGGUGUUUUUGGCUGCA | 0.745 ratio |
| AUAUGACUAGCAAGCUAGCUGUUUUUAAUCUCUUCUGCAAGUUUGGUGAUCCGUGUGGUUUAGUAGAGAUAUUAAAAUUAUUAAAAAUACUAUGUUGAUUUCAGAAGAGACUAGCUUUGU | 11.5 ratio |
| UGAAAAUCUAAAUACUCCUUUUGCAAUGAAUUACCUUUUUCUGGAGGAGGGGUAGUCAGGGGAGCUAAGACAAGGUCCCUCUGUGUAACUCUGACUGUCCUAGAACUUGCUUGCUAUGUA | 0.259 ratio |
| GCUGAAGCUAAACCCUCUGUCCACAUUGUCAUGAACUUGCCAGCUAAGGCCAUAGAGUUUCUCAGUGUUUUCAGAUCACUUUUGGAUGGGCAGCCUUGCAGCACGGAGCUCCUCCCCACA | 0.196 ratio |
| CGUGUAAGUCAGAUGCUGAUUUUGACUCCAUUUCAAGGUCAAGGCCAUGGUGCUCAACUUCUUGAAACAGUUCAUAGAUACUACACUGAAUUUCCUACAGUUCUUGAUAUUACAGCGGAA | 0.395 ratio |
| ACUUGCCGUGACUGCAGGAUGCUCUCAGCGCGCACUGACGCACUCACAGCCCACUCUGCCAUCCACGGGACCACCUCCAGGGUGUACUCCAGAGACAGGACUCUCAAACCACGUGACCUC | 0.125 ratio |
| GCAGAUGCUGAGGUUGCCAGGAGGAAAUCAGUCCCAUCAGAGACUGUGGUUGAGGAUAGUCGUACUGGCUUGCCCCCGGUAACUGAUGAAAACCAUGUCAUUGUAAAAACGGACAGUCAG | 0.127 ratio |
| UGUCCACAAGUGGCCGACAUGGAACAUGCUGAGCAGUGGCUCCUCUGAAUGUUCACUUUAUUAGUCAUGUAUAUUUUAAAUGCUAACAUUUGAUGAAUGUAAGUUUCCACAUUGUUGCUG | 0.979 ratio |
| CAGGGCGUGAUCAAGUACAUGGGGCCGGCAGGGAGUAAGACCCUGCAGAGUGUUGUGCUUAGCAAGAUGAACUUUGAGUCUUUCGUGAAAGAUCUUCUUCUGGUUCGCCAGUAUCGAGUU | 0.107 ratio |

Other studies, line by line
| Molecule | target | test | system | conditions | scale | measurement | result |
| --- | --- | --- | --- | --- | --- | --- | --- |
| PhoQ, residues 284 288 289 292 302 303 SVTLVV | PhoP, residues 12 14 15 18 19 LYFRQ (Escherichia coli, UniProt P23836) | Sort-seq, item: YFP reporter | E. coli | PhoQ-PhoP variant library, added: 10 µM Mg2+ | reference: high Mg2+ state, higher = stronger signaling | fold induction | 2.99 |

Repeated from above (study 1):
| Modification | mean fluorescence intensity [a.u.] |
| --- | --- |
| 2'F-ANA at 2 4 8 9 11 13 14 15 | 75.7 |
| 2'F-ANA at 2 6 9 11 13 14 15 | 115 |
| 2'F-ANA at 1 4 7 9 12 13 | 159 |
| 2'F-ANA at 2 5 6 9 12 13 15 | 130 |
| 2'F-ANA at 1 3 7 12 13 14 15 | 129 |
| 2'F-ANA at 2 4 7 8 9 11 14 15 | 90 |
| 2'F-ANA at 5 6 7 8 9 11 12 13 14 15 | 156 |
| 2'F-ANA at 4 5 7 9 11 13 14 | 56.1 |
